Measurements collected from several papers.
Compare with care: the assays were run in different laboratories. pEC50: −log10 of the molar value.
Organism: Trypanosoma brucei

CCn1nc(-c2cc(Br)cs2)nc2c(=O)n(C)c(=O)nc1-2 — pEC50 (parasite growth, resazurin; 73 h): 5.47
Cc1oc2nc[nH]c(=O)c2c1C(=O)N(C)CC12CC3CC(CC(C3)C1)C2 — pEC50 (cell viability, flow cytometry, PI; bloodstream form; 24 h): < 4.60
CC(C)[C@@H](C)Nc1c(-c2c(F)cc(C#CCCN)cc2F)c(Cl)nc2ncnn12 — pEC50 (parasite growth, SYBR Green; 72 h): 6.72
CC(=O)OC[C@H]1O[C@@H]([Se]C(C)=O)[C@H](OC(C)=O)[C@@H](OC(C)=O)[C@@H]1OC(C)=O — pEC50 (parasite growth; 24 h): 6.37
Clc1cc(Cl)cc(CNCCCNc2nc3ccccc3[nH]2)c1 — pEC50 (parasite growth): 7.80
COc1ccc(Nc2nc(N)c(C(=O)c3ccc(OC)cc3)s2)cc1 — pEC50 (cell proliferation, resazurin; bloodstream form; 73 h): 6.15
CC(=O)N[C@@H]1[C@@H](OC(C)=O)[C@H](OC(C)=O)[C@@H](COC(C)=O)O[C@H]1[Se]Cc1ccc([N+](=O)[O-])cc1 — pEC50 (parasite growth; 24 h): 5.11
COC(=O)c1[nH]c(C(=O)OC)c2c1-c1c[nH]c3ccc(Cl)c(c13)C21C=Nc2ccc(Cl)cc21 (racemic) — pEC50 (parasite growth, ATP luminescence; 48 h): 5.12
C[C@@H](Nc1c(-c2c(F)cc(OCCCN(C)C)cc2F)c(Cl)nc2ncnn12)C1CC1 — pEC50 (parasite growth, SYBR Green; 72 h): 7.06
Clc1ccc(C(c2ccc(Cl)cc2)n2cc[n+](CC(OCc3ccc(Cl)cc3Cl)c3ccc(Cl)cc3Cl)c2)cc1 (stereo not drawn) — pEC50 (cell viability, flow cytometry, PI; bloodstream form; 24 h): 6.22
C[C@@H](Nc1c(-c2c(F)cc(C#CCCO)cc2F)c(Cl)nc2ncnn12)C(C)(C)C — pEC50 (parasite growth, SYBR Green; 72 h): 6.80
CC(=O)N[C@@H]1[C@@H](OC(C)=O)[C@H](OC(C)=O)[C@@H](COC(C)=O)O[C@H]1[Se]Sc1ccccc1 — pEC50 (parasite growth; 24 h): 5.32
CN(C)CCCOc1cc(F)c(-c2c(Cl)nc3ncnn3c2NCC2(C)N=N2)c(F)c1 — pEC50 (parasite growth, SYBR Green; 72 h): 7.26
CNC(=O)c1c(F)cccc1Nc1nc(Nc2cc3c(cc2OC)CCN3C(=O)CN(C)C)nc2[nH]ccc12 — pEC50 (parasite growth): 5.70
CCNc1nc(N)c(C(=O)c2ccc(Cl)s2)s1 — pEC50 (cell proliferation, resazurin; bloodstream form; 73 h): 5.70
COc1ccc(C(C)=O)cc1CC(=O)N1CCC(C(=O)Nc2ccc(Br)cn2)CC1 — pEC50 (cell viability, flow cytometry, PI; bloodstream form; 24 h): < 4.60
CC(=O)OC[C@H]1O[C@@H]([Se][Se][C@@H]2O[C@H](COC(C)=O)[C@@H](OC(C)=O)[C@H](OC(C)=O)[C@H]2OC(C)=O)[C@H](OC(C)=O)[C@@H](OC(C)=O)[C@@H]1OC(C)=O — pEC50 (parasite growth, flow cytometry; 24 h, blood stage): 6.27
C[C@H](Nc1c(-c2c(F)cc(OCCCN)cc2F)c(Cl)nc2ncnn12)C(F)(F)F — pEC50 (parasite growth, SYBR Green; 72 h): 6.90
Nc1nc(Nc2ccccc2)sc1C(=O)c1ccccc1 — pEC50 (cell proliferation, resazurin; bloodstream form; 73 h): 6.70
C[C@@H](Nc1c(-c2c(F)cc(C#CCCN)cc2F)c(Cl)nc2ncnn12)C(C)(C)C — pEC50 (parasite growth, SYBR Green; 72 h): 6.62
COC(=O)c1[nH]c(C(=O)OC)c2c1c1c3cc(Cl)ccc3[nH]c1c1[nH]c3ccc(Cl)cc3c12 — pEC50 (parasite growth, ATP luminescence; 48 h): 6.43
